{"data": "Measured values gathered from unrelated publications", "note": "Every numbered part comes from another study and shows a few of its results, in no order. Positions count from the first letter of the parent shown.", "chain of UniProt Q9UL54 (whole entry, looked up)": "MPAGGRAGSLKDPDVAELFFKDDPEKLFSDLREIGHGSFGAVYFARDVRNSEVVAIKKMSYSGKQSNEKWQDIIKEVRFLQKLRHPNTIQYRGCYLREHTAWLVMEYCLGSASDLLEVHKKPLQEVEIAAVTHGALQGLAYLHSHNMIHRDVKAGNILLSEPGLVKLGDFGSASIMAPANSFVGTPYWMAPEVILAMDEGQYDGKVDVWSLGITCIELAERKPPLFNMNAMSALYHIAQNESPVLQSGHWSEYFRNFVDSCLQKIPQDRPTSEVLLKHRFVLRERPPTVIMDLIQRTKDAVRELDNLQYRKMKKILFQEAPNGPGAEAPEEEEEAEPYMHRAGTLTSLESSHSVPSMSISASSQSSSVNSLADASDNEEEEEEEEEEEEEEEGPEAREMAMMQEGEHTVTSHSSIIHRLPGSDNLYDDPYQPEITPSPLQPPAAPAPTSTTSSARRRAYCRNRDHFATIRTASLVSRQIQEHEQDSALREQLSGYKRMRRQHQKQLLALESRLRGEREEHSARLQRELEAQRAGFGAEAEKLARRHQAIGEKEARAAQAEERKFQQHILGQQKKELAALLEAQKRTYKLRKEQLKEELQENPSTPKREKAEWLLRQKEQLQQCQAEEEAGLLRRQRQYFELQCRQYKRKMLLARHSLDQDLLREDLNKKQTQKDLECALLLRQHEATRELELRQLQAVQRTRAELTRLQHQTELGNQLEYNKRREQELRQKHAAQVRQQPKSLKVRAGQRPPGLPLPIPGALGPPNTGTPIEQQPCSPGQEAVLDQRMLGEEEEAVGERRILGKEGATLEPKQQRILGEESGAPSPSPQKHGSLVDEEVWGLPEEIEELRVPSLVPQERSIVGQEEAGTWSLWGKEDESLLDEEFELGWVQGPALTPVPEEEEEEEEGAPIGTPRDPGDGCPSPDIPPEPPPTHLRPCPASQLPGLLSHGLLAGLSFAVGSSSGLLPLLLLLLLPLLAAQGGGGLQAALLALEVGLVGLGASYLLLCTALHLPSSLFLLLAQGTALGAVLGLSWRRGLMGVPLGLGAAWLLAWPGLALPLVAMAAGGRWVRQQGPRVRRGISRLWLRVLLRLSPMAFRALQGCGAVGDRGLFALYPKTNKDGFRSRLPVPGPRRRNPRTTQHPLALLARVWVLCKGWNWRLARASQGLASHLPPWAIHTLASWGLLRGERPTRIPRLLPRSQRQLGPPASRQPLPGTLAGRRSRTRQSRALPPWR", "chain of UniProt Q12866 (whole entry, looked up)": "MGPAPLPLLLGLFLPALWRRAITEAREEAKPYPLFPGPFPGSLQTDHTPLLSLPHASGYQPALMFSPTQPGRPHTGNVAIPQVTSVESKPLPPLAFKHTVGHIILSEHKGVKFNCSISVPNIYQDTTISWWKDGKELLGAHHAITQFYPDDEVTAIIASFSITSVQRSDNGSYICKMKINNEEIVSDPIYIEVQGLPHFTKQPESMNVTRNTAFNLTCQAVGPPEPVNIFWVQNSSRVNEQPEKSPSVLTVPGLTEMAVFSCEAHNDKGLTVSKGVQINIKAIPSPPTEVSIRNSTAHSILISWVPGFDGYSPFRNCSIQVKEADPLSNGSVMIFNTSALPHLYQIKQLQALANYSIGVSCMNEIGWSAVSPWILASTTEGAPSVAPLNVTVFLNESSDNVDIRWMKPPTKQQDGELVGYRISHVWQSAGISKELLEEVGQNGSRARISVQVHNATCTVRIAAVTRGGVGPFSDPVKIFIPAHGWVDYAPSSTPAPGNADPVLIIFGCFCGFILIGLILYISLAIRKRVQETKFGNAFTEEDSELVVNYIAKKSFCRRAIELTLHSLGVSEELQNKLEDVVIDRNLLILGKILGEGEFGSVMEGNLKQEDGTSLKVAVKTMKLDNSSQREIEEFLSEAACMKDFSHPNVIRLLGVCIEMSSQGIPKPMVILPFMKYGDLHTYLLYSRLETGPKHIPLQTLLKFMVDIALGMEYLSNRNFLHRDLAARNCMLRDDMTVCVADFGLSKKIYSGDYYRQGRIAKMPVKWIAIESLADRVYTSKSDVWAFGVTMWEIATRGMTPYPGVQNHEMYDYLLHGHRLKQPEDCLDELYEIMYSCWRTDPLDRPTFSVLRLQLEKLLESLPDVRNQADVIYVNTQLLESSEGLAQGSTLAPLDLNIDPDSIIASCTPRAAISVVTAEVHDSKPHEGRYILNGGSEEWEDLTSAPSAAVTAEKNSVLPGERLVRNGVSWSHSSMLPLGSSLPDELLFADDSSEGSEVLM", "chain of UniProt Q15349 (whole entry, looked up)": "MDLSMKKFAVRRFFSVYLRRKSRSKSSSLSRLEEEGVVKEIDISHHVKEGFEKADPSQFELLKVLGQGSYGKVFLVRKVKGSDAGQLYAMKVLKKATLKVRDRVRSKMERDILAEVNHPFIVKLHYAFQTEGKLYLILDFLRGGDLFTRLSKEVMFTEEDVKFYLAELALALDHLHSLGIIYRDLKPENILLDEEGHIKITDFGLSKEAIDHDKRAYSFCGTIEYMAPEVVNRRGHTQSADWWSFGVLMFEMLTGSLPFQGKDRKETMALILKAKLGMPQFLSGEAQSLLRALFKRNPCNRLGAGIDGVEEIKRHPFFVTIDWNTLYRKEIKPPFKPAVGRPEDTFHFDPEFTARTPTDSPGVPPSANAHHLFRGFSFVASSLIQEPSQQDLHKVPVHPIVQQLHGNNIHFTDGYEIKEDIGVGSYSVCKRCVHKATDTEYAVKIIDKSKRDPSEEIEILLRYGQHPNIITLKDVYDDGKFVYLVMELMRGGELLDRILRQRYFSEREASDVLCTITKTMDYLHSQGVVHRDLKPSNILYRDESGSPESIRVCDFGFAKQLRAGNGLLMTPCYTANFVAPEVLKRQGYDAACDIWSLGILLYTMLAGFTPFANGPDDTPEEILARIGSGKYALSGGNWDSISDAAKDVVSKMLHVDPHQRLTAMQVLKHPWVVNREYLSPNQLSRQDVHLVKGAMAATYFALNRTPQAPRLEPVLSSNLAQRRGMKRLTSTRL", "chain of UniProt Q9UHD2 (whole entry, looked up)": "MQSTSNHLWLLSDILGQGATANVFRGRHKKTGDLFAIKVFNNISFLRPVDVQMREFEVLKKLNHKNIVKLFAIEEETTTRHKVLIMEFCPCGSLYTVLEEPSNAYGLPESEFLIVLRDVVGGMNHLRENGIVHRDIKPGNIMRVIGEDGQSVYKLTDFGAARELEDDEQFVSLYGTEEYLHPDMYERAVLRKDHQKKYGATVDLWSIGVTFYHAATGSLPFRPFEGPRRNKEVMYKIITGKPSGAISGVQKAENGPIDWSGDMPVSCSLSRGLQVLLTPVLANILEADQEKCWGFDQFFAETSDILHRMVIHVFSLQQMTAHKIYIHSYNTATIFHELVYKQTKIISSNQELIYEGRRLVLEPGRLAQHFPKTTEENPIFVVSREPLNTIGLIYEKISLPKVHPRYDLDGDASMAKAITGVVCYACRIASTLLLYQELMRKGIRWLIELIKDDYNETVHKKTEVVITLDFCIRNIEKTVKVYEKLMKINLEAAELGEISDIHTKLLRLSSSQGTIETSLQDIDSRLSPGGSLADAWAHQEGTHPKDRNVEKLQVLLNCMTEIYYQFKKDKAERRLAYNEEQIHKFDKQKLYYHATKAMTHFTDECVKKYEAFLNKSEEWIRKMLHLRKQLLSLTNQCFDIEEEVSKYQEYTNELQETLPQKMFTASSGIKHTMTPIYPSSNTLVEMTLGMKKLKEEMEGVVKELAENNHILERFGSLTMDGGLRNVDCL", "chain of UniProt P06239 (whole entry, looked up)": "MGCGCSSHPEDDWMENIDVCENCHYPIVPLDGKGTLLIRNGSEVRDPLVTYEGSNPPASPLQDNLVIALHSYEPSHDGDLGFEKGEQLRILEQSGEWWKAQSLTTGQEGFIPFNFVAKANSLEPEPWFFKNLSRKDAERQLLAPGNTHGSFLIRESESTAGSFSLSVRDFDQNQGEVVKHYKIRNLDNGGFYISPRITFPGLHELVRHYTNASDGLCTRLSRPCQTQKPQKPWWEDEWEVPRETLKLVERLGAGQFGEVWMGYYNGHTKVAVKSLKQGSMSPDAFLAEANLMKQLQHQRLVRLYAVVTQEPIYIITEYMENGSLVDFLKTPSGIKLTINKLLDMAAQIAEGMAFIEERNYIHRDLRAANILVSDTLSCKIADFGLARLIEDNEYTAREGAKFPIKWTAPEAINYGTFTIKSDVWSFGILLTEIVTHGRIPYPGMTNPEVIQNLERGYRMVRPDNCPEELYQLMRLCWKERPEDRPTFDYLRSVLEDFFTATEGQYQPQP", "chain of UniProt Q8WTQ7 (whole entry, looked up)": "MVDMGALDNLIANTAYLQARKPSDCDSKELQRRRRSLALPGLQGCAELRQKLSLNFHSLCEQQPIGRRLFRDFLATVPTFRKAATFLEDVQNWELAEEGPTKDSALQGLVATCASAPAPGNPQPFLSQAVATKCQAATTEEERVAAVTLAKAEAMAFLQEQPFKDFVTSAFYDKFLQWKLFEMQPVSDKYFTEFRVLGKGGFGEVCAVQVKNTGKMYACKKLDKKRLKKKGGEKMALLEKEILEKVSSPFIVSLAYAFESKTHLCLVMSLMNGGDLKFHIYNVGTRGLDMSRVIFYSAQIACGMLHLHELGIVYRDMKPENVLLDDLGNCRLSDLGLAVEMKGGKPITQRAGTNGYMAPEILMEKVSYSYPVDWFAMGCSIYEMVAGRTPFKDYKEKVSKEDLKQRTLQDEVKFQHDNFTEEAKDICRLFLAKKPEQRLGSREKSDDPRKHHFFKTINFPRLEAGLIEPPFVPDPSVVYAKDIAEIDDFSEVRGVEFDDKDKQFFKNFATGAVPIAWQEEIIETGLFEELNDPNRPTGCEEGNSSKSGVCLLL", "chain of UniProt Q9HC98 (whole entry, looked up)": "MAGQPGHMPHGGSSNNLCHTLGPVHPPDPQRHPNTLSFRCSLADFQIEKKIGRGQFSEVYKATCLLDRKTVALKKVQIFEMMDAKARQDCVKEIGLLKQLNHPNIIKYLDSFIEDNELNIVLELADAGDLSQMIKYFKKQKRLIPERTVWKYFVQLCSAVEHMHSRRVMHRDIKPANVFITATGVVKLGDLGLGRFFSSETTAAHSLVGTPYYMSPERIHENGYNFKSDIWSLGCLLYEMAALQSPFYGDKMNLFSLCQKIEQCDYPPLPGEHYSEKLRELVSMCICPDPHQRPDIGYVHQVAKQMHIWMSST"}
{"data": "Sample 1", "target": "CCNA1, cyclin fold, Cln2 fusion (human)", "technique": "yeast growth competition, sequencing", "sample": "yeast", "notes": "weak parent motif", "relative to": "not given", "reading": "higher = stronger binding", "starting sequence": "viral docking peptide; KKVKRRLFETREL; partner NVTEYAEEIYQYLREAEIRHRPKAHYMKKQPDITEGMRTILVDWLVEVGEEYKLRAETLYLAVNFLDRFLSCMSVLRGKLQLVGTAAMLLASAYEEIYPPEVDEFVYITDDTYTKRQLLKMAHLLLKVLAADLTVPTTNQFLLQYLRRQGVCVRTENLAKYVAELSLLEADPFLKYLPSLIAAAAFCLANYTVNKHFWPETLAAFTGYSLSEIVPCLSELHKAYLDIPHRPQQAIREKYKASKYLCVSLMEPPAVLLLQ"}
{"Substitution": "E12A", "normalised enrichment score": 0.448}
{"Substitution": "R5K", "normalised enrichment score": 0.286}
{"Substitution": "F8A", "normalised enrichment score": 0.426}
{"Substitution": "R6A", "normalised enrichment score": 0.613}
{"Substitution": "R5A", "normalised enrichment score": 0.358}
{"Substitution": "T10A", "normalised enrichment score": 0.41}
{"Substitution": "R5K F8L", "normalised enrichment score": -0.137}
{"Substitution": "K1A", "normalised enrichment score": 0.664}
{"Substitution": "R5A L7A", "normalised enrichment score": 0.0968}
{"data": "Sample 2", "Compound": "COc1ccc2c(c[n+](C)c3c4cc5c(cc4ccc23)OCO5)c1OC", "read-out": "enzyme activity", "mode": "inhibitor", "tested at": "0.5 µM", "relative to": "control"}
{"target": "Serine/threonine-protein kinase ULK2 (ULK2, Homo sapiens, UniProt Q8IYT8)", "remaining activity": "92%"}
{"target": "Ribosomal protein S6 kinase alpha-2 (RPS6KA2, Homo sapiens, UniProt Q15349)", "remaining activity": "86.1%"}
{"target": "Tyrosine-protein kinase Lck (LCK, Homo sapiens, UniProt P06239)", "remaining activity": "89%"}
{"target": "Serine/threonine-protein kinase Nek1 (NEK1, Homo sapiens, UniProt Q96PY6)", "remaining activity": "91.3%"}
{"target": "Rhodopsin kinase GRK7 (GRK7, Homo sapiens, UniProt Q8WTQ7)", "remaining activity": "101%"}
{"target": "Serine/threonine-protein kinase Nek6 (NEK6, Homo sapiens, UniProt Q9HC98)", "remaining activity": "104%"}
{"target": "Serine/threonine-protein kinase TAO2 (TAOK2, Homo sapiens, UniProt Q9UL54)", "remaining activity": "95%"}
{"target": "Serine/threonine-protein kinase TBK1 (TBK1, Homo sapiens, UniProt Q9UHD2)", "remaining activity": "96.2%"}
{"target": "Tyrosine-protein kinase Mer (MERTK, Homo sapiens, UniProt Q12866)", "remaining activity": "90.8%"}
{"target": "Casein kinase I isoform gamma-3 (CSNK1G3, Homo sapiens, UniProt Q9Y6M4)", "remaining activity": "92.5%"}
{"target": "Mitogen-activated protein kinase kinase kinase 14 (MAP3K14, Homo sapiens, UniProt Q99558)", "remaining activity": "88.1%"}
{"target": "Ephrin type-A receptor 3 (EPHA3, Homo sapiens, UniProt P29320)", "remaining activity": "94.9%"}
{"target": "Angiopoietin-1 receptor (TEK, Homo sapiens, UniProt Q02763)", "remaining activity": "97.2%"}
{"data": "Sample 3", "sample": "1,9-decadiene/PBS", "pH": "7.4"}
{"SMILES": "CC(C)C[C@@H]1NC(=O)[C@H](Cc2cscn2)NC(=O)[C@H](CCC(=O)N2CCCC2)NC(=O)[C@@H](CCC(=O)N2CCCC2)NC(=O)[C@H](CC(C)C)NC(=O)[C@@H](CC(C)C)NC(=O)[C@H](CC(C)C)NC1=O", "logD": -1.66}
{"SMILES": "CC(C)C[C@@H]1NC(=O)[C@H](Cc2cscn2)NC(=O)[C@H](C)NC(=O)[C@H](C)NC(=O)[C@@H](CCC(=O)N2CCCC2)NC(=O)[C@H](CC(C)C)NC(=O)[C@@H](CC(C)C)NC1=O", "logD": -2.96}
{"SMILES": "CC(C)C[C@@H]1NC(=O)[C@H](C)NC(=O)[C@@H](CC(C)C)NC(=O)[C@@H](CC(C)C)NC(=O)[C@H](C)NC(=O)[C@H](CC(C)C)NC(=O)[C@@H](CC(C)C)NC1=O", "logD": 0.546}
{"SMILES": "CC(C)C[C@@H]1NC(=O)[C@H](C)NC(=O)[C@H](C)NC(=O)[C@H](CCC(=O)N2CCCC2)NC(=O)[C@H](CC(C)C)NC(=O)[C@H](CC(C)C)NC(=O)[C@@H](C(C)C)NC1=O", "logD": -2.96}
{"SMILES": "CC(C)C[C@@H]1NC(=O)[C@H](CC(C)C)NC(=O)[C@H](CC(C)C)NC(=O)[C@@H](C)NC(=O)[C@H](C(C)C)NC(=O)[C@H](Cc2cscn2)NC(=O)[C@H](C)NC1=O", "logD": -1.68}
{"SMILES": "CC(C)C[C@@H]1NC(=O)[C@H](CCC(=O)N2CCCC2)NC(=O)[C@@H](C(C)C)NC(=O)[C@H](C)NC(=O)[C@H](CC(C)C)NC(=O)[C@@H](CC(C)C)NC(=O)[C@H](CC(C)C)NC1=O", "logD": -0.865}
{"SMILES": "CC(C)C[C@@H]1NC(=O)[C@@H](C)NC(=O)[C@@H](CC(C)C)NC(=O)[C@H](C)NC(=O)[C@H](C)NC(=O)[C@H](CC(C)C)NC(=O)[C@@H](CC(C)C)NC1=O", "logD": -2.1}
{"SMILES": "CC(C)C[C@@H]1NC(=O)[C@H](Cc2cscn2)NC(=O)[C@H](Cc2cscn2)NC(=O)[C@@H](CC(C)C)NC(=O)[C@@H](CCC(=O)N2CCCC2)NC(=O)[C@H](CC(C)C)NC(=O)[C@@H](CC(C)C)NC1=O", "logD": -0.635}
{"data": "Mixed results"}
{"SMILES": "c1cncc([C@@H]2CCCN2)c1", "organism": "Sarcocystis neurona", "test": "parasite growth", "conditions": "10 µM, 96 h, secondary screen", "measurement": "inhibition", "value": "-43.2%"}
{"note": "For quick reference, copied from above (sample 3):"}
{"SMILES": "CC(C)C[C@@H]1NC(=O)[C@H](CCC(=O)N2CCCC2)NC(=O)[C@@H](C(C)C)NC(=O)[C@H](C)NC(=O)[C@H](CC(C)C)NC(=O)[C@@H](CC(C)C)NC(=O)[C@H](CC(C)C)NC1=O", "logD": -0.865}
{"SMILES": "CC(C)C[C@@H]1NC(=O)[C@H](Cc2cscn2)NC(=O)[C@H](Cc2cscn2)NC(=O)[C@@H](CC(C)C)NC(=O)[C@@H](CCC(=O)N2CCCC2)NC(=O)[C@H](CC(C)C)NC(=O)[C@@H](CC(C)C)NC1=O", "logD": -0.635}
{"SMILES": "CC(C)C[C@@H]1NC(=O)[C@H](Cc2cscn2)NC(=O)[C@H](CCC(=O)N2CCCC2)NC(=O)[C@@H](CCC(=O)N2CCCC2)NC(=O)[C@H](CC(C)C)NC(=O)[C@@H](CC(C)C)NC(=O)[C@H](CC(C)C)NC1=O", "logD": -1.66}
{"SMILES": "CC(C)C[C@@H]1NC(=O)[C@@H](C)NC(=O)[C@@H](CC(C)C)NC(=O)[C@H](C)NC(=O)[C@H](C)NC(=O)[C@H](CC(C)C)NC(=O)[C@@H](CC(C)C)NC1=O", "logD": -2.1}
